{"data": "Assay results collected from several papers", "note": "Parts stem from different laboratories: compare values within a part only. Positions count from the first letter of the parent shown."}
{"data": "Set 1", "target": "CCNE1, cyclin fold, Cln2 fusion (human)", "technique": "yeast growth competition, sequencing", "matrix": "yeast", "notes": "weak parent motif", "reference": "not given", "direction": "higher = stronger binding", "parent": "BORA docking peptide (human); SSLRRKLFLDGNG"}
{"Variant": "F8L", "normalised enrichment score": 0.438}
{"Variant": "L9F", "normalised enrichment score": 0.93}
{"Variant": "R5K L9F", "normalised enrichment score": 1.05}
{"Variant": "S2A", "normalised enrichment score": 0.909}
{"Variant": "R4A", "normalised enrichment score": 0.652}
{"Variant": "G13A", "normalised enrichment score": 0.861}
{"Variant": "R5A", "normalised enrichment score": 0.548}
{"Variant": "R5A L7A", "normalised enrichment score": -0.364}
{"Variant": "S1A", "normalised enrichment score": 0.708}
{"Variant": "F8A", "normalised enrichment score": 0.471}
{"Variant": "L9A", "normalised enrichment score": 0.0954}
{"data": "Set 2", "target": "Histone acetyltransferase KAT6A, winged helix 2, GST fusion (KAT6A, Homo sapiens, UniProt Q92794, residues 85-181)", "technique": "protein binding microarray", "molecule type": "double-stranded DNA, one strand shown", "matrix": "in vitro", "concentration": "not given", "notes": "8-mer, flanks averaged, mean of 2 arrays, mostly near background", "reference": "not given", "direction": "higher = stronger binding", "Residues (chain)": "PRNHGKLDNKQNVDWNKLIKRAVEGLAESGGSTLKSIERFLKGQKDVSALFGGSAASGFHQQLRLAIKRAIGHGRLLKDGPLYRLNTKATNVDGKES"}
{"Sequence": "ACCACCGC", "E-score": -0.141}
{"Sequence": "ACCTTAGC", "E-score": -0.0359}
{"Sequence": "ATGACCTA", "E-score": -0.216}
{"Sequence": "AACGGATC", "E-score": -0.019}
{"Sequence": "CCGCGCGG", "E-score": 0.348}
{"Sequence": "CTTCGGGA", "E-score": 0.118}
{"Sequence": "GAGACATA", "E-score": 0.00024}
{"Sequence": "AGGAATGA", "E-score": 0.0457}
{"Sequence": "GGACCCAA", "E-score": -0.0617}
{"Sequence": "AGGCATTG", "E-score": -0.141}
{"Sequence": "AAGTTTGT", "E-score": 0.0657}
{"Sequence": "TCGTATAA", "E-score": 0.0561}
{"Sequence": "ATCAGAAG", "E-score": 0.114}
{"Sequence": "CAGCAGTC", "E-score": -0.0258}
{"Sequence": "AACTGTAT", "E-score": -0.0357}
{"Sequence": "AAACTGGG", "E-score": 0.0141}
{"Sequence": "TATGGTAA", "E-score": -0.104}
{"Sequence": "ATAGGTGA", "E-score": -0.224}
{"Sequence": "CAGGGTAA", "E-score": -0.0615}
{"Sequence": "AAGATGCC", "E-score": 0.139}
{"Sequence": "AGCTGTAA", "E-score": -0.0997}
{"Sequence": "AACAGATG", "E-score": -0.121}
{"Sequence": "GGGTACTA", "E-score": -0.00138}
{"Sequence": "ATTAGCAA", "E-score": 0.144}
{"Sequence": "ATTGACGC", "E-score": 0.0628}
{"data": "Set 3", "target": "ABI1, truncated, D143A, DHFR fusion (Arabidopsis thaliana)", "technique": "DHFR PCA, deep sequencing", "matrix": "yeast", "notes": "methotrexate growth selection, single substitutions", "added": "(+)-ABA 0.0091 µM", "reference": "wild-type fitted maximum", "direction": "higher = stronger binding", "parent": "PYL1, truncated, DHFR fusion (Arabidopsis thaliana); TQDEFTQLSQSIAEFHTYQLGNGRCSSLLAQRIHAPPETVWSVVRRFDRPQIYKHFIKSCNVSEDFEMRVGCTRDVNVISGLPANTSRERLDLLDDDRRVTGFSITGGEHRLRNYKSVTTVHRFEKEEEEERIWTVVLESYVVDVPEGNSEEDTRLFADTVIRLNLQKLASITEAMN"}
{"Variant": "T39K", "relative binding score": "8.97%"}
{"Variant": "T120D", "relative binding score": "-5.7%"}
{"Variant": "I162W", "relative binding score": "-2.71%"}
{"Variant": "L156C", "relative binding score": "13.9%"}
{"Variant": "L8I", "relative binding score": "13.5%"}
{"Variant": "Y141N", "relative binding score": "-3.07%"}
{"Variant": "R123L", "relative binding score": "-2.42%"}
{"Variant": "T106D", "relative binding score": "33.1%"}
{"Variant": "D144M", "relative binding score": "-3.76%"}
{"Variant": "R45H", "relative binding score": "-1.84%"}
{"Variant": "T101Y", "relative binding score": "3.32%"}
{"Variant": "P83L", "relative binding score": "3.2%"}
{"Variant": "V40Y", "relative binding score": "-9.05%"}
{"Variant": "S42L", "relative binding score": "-3.65%"}
{"Variant": "R88S", "relative binding score": "5.37%"}
{"Variant": "D97W", "relative binding score": "-4.59%"}
{"Variant": "Q7E", "relative binding score": "33.2%"}
{"data": "Other studies, line by line"}
{"Substance": "PhoQ, residues 284 288 289 292 302 303 TLSLKA", "target": "PhoP, residues 12 14 15 18 19 DLLYY (Escherichia coli, UniProt P23836)", "assay": "Sort-seq, refers to: YFP reporter", "system": "E. coli", "conditions": "PhoQ-PhoP variant library, added: 10 µM Mg2+", "how to read": "reference: high Mg2+ state, higher = stronger signaling", "quantity": "fold induction", "result": 0.555}
